Assay results pooled from the literature.
Each numbered part is a random draw from the data of one study; scales do not carry over between parts. Substitutions count along the parent as printed.

Block 1 — target: CCNB2, cyclin fold, Cln2 fusion (human); technique: yeast growth competition, sequencing; matrix: yeast; notes: weak parent motif; baseline: not given; reading: higher = stronger binding
Parent: viral docking peptide; KGVKRKLFAEDSS; partner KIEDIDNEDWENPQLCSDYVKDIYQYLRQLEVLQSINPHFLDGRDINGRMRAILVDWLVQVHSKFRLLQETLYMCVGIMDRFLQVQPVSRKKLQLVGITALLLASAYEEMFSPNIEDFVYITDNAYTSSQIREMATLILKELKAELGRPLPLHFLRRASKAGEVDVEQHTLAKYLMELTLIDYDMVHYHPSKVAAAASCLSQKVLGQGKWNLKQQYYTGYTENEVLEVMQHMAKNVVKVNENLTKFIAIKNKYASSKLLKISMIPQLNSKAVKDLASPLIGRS
For `K6D`, “normalised enrichment score” read -0.235.
`A9L`: “normalised enrichment score” 0.793.
Under “normalised enrichment score”, `K6Q` is recorded as 1.
`D11N` — result for “normalised enrichment score”: 0.695.
For `K6N`, “normalised enrichment score” read 0.182.
`A9F`: “normalised enrichment score” 2.
`G2T` — result for “normalised enrichment score”: 0.358.
`L7Q`: “normalised enrichment score” 0.731.
Under “normalised enrichment score”, `R5I` is recorded as 0.223.
Under “normalised enrichment score”, `G2K` is recorded as 0.755.
`G2C` — result for “normalised enrichment score”: 1.12.
Under “normalised enrichment score”, `S12Y` is recorded as 0.75.
`F8T`: “normalised enrichment score” 0.414.
`S12M` — result for “normalised enrichment score”: 0.59.
For `K4A`, “normalised enrichment score” read 0.886.
Under “normalised enrichment score”, `A9M` is recorded as 0.918.
For `R5Y`, “normalised enrichment score” read -0.276.

Block 2 — technique: RNA Bind-n-Seq; molecule type: RNA; matrix: in vitro; concentration: 365 nM; baseline: no-protein control; reading: higher = stronger binding
Target: RNA binding protein fox-1 homolog 2, RRM domain, GST-SBP tag (RBFOX2, Homo sapiens, UniProt O43251-10, residues 100-194)
Notes: natural RNA segment, single round, ends assumed
Constant ends, left off below: GGGAGUUCUACAGUCCGACGAUC … UGGAAUUCUCGGGUGCCAA
Target sequence (chain): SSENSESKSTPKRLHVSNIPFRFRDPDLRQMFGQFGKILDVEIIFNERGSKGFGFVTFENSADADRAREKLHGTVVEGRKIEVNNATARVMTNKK
Under “RBNS enrichment (R)”, `UCCAUCCUUUCUUUUUUGUAUAUUAUUGUUUACAAUAAAUAUACAUUGCAUUAAAGUGAAAACAGCCCCUUUGACUUAUUCACUCUGUUCUCCUAUGAAGAGUGCUUUAA` is recorded as 0.405.
For `UAGAAAAAUUCUUUUAAAAUUGACAGAAGAUAAUUUAUACCUUUUAUGGACUCUGAAGACACUUCAAAACAUUAAAAGUCCUUAUGUCUUUGGUAAUGAAACAAUAACAC`, “RBNS enrichment (R)” read 0.57.
`UUGCUGCAGGGCAGGAUGCCCACUGUCAGCUCCUGCGCUUCCAGGCACAUCAACAGCAGGGCAACAAGGCAGAGAAGGCCGGUUCCAAGGAGCAGGGGCCUCGACAAAGG` — result for “RBNS enrichment (R)”: 0.352.
Under “RBNS enrichment (R)”, `AUCCAAACUGGUUUGUUAAAAACUCUAGGUCACAUUCUUACACUAAGAAAAACAGUUAACAUGAGACAAAGUUUAGGAAAAACUAAUAAAAGAAACCUGUCUUAACUUGA` is recorded as 0.305.
Under “RBNS enrichment (R)”, `CUGAGCAGCUAUGCAGGUUGACUGCCCACAGGCAUGUGGAAACUUGGUUCUCAGCACUUGGCAGGAUCUAUGGCAUAAGUGGAGAGGGAAGGUGUACUGGACGGCGGAGA` is recorded as 1.53.
`ACCCUUGGGUUUGCCUUAGAACACUGACACUAAGAACCUGGAAUGACAUGGGGAGGACAAAGAGAGCUCAAGAGGAAUGCUUUGUGAGAAGUGGAUUCUCUCCGUGUCCC`: “RBNS enrichment (R)” 1.46.
For `UAGUGGUGAGGGCCCUCUGUUGCAGGGGCAUGGGGAAAUGCAUAUAUUAAUCAGGGGCUGGAGGAGUAUACAUGAUUCUUGUGUUCAUGUUGUCAUUUGAAACUCUUCAC`, “RBNS enrichment (R)” read 0.976.
`CAUCUUAAUCCAAGCAAAAAUAAGACAGCUUAAAAAACAACCAAAAAAAAUGUGCCUCUGGUGAAUUAUCCAUCCUUUUUUUAAAAUGUUAAACUGGUCUUUGAGAAAAG` — result for “RBNS enrichment (R)”: 0.438.

Block 3 — target: CEBPA, bZIP domain (human); technique: DHFR protein complementation; matrix: yeast; baseline: wild-type JUN-FOS pair; reading: higher = stronger binding
Notes: single substitutions, most at no-binding floor
Parent: JUN, bZIP domain (human); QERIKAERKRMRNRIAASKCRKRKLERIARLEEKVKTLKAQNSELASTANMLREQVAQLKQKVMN; partner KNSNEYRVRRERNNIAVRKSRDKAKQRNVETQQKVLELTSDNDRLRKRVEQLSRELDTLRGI
The binding fitness of `E54V` is reported as -1.41 natural log.
`V56N` gave a binding fitness of -1.44 natural log.
The binding fitness of `A49W` is reported as -1.39 natural log.
`E44N` has a binding fitness of -1.47 natural log.
The binding fitness of `E44V` is reported as -1.47 natural log.
With `T37K` the binding fitness was -1.4 natural log.
For `L38F`, the binding fitness was -1.55 natural log.
With `A57Q` the binding fitness was -1.41 natural log.

Further values, each from its own experiment — target: inorganic phosphate, free oxyanion; technique: microfluidic competitive inhibition; matrix: in vitro, cell-free expressed; concentration: not given; reading: lower = stronger binding
Notes: derived from inhibition constants, unchanged parent 615000 nM
Parent: PafA, mature enzyme, eGFP fusion (Elizabethkingia meningoseptica, UniProt Q9KJX5); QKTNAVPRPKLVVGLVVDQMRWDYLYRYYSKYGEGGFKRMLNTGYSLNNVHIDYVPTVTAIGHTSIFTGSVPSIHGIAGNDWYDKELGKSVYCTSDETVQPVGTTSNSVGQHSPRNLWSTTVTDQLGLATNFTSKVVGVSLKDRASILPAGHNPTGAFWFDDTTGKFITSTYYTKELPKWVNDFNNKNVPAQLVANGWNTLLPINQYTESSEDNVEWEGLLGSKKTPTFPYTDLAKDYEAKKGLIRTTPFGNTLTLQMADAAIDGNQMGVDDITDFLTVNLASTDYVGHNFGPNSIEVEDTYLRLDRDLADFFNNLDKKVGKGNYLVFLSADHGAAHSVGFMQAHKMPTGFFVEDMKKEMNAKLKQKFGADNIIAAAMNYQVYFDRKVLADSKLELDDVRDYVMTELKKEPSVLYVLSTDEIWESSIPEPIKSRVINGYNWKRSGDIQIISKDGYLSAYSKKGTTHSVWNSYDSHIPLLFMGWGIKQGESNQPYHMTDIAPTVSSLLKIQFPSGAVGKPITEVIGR
Under “phosphate dissociation constant”, `G454A` is recorded as 495 µM.
`W180G`: “phosphate dissociation constant” 549 µM.
`V298G`: “phosphate dissociation constant” 545 µM.

A few entries again (block 1):
Under “normalised enrichment score”, `S12Y` is recorded as 0.75.
`F8T`: “normalised enrichment score” 0.414.
`S12M` — result for “normalised enrichment score”: 0.59.
For `K4A`, “normalised enrichment score” read 0.886.
Under “normalised enrichment score”, `A9M` is recorded as 0.918.
For `R5Y`, “normalised enrichment score” read -0.276.
